Assay results collected from several papers.
Compare with care: the assays were run in different laboratories. Numbers after ± are the reported error.

Structure (SMILES) | target or system | assay | system | conditions | scale | quantity | value
COc1ccc2cc3[n+](cc2c1OC)CCc1cc2c(cc1-3)OCO2 | THP-1 | – | – | 24 h | – | CC50 | 91.4 µM
CN1CCN(c2cnc3c(cc(C(=O)NCc4ccc(Cl)cc4)c(=O)n3CC(=O)N3CC(C)(F)C3)n2)C1=O | MRC-5 | cell viability, CCK-8 | – | – | – | CC50 | > 40 µM
COC(=O)N[C@H](C(=O)N1CCC[C@H]1c1nc(-c2ccc(-c3ccc(-c4c[nH]c([C@@H]5CCCN5C(=O)[C@@H](NC(=O)OC)C(C)C)n4)cc3)cc2)c[nH]1)C(C)C | MDBK, Vero, MT-2, MRC5, Huh-7 | cytotoxicity | – | up to five days | – | CC50 | ≥ 17 µM
CC(=O)c1c(C)cc2cc(O)cc(O[C@@H]3O[C@H](CO)[C@@H](O)[C@H](O)[C@H]3O)c2c1O | HK-2 co-cultured with HepaRG | MTT | – | 66.67 µM, 24 h | relative to: untreated control | cell viability | 110 ± 9.74%
O=C(Nc1nc2cccc(-c3ccc(CN4CCS(=O)(=O)CC4)cc3)n2n1)C1CC1 | – | – | rheumatoid arthritis patients | oral, 100 mg twice daily, 4 weeks, TEAE regardless of relatedness | – | patients with Hypotension | 0%
CCc1cc(F)c(Cc2cnc(Nc3ccc(C#N)c(Cl)c3)o2)c(F)c1 | MT2 cells | cell growth | – | – | – | CC50 | 10.2 µM
COC(=O)c1c(C)ncn1CC(c1cn(C)c2ccccc12)c1cn(C)c2ccccc12 | human primary fibroblasts | viability, MTS | – | 24 h | – | CC50 | > 20 µM
CC1(F)CN(C(=O)Cn2c(=O)c(C(=O)NCc3ccc(Cl)cc3)cc3nc(N4CCN(CC(=O)O)C4=O)cnc32)C1 | MRC-5 | cell viability, CCK-8 | – | – | – | CC50 | > 40 µM
N#Cc1ccc(Nc2nc(N)cc(Oc3ccc(-c4ccccc4C#N)cc3F)n2)cc1 | MT4 uninfected | – | – | – | – | CC50 | > 256 µM
Cc1cn(CC(c2cn(C)c3ccccc23)c2cn(C)c3ccccc23)nn1 | human primary fibroblasts | viability, MTS | – | 24 h | – | CC50 | > 20 µM
N#Cc1ccc(Nc2nc(N)cc(Oc3ccc(-c4ccccc4F)cc3)n2)cc1 | MT4 uninfected | – | – | – | – | CC50 | 6.51 ± 1.64 µM
COc1c(O)cc2c(c1O)C(=O)c1c(cc(C)c(O)c1OC)C2=O | HK-2 co-cultured with HepaRG | MTT | – | 16.67 µM, 24 h | relative to: untreated control | viability | 99.7 ± 12.1%
N#Cc1ccc(Nc2nc(N)cc(Oc3c(F)cc(-c4ccccc4)cc3F)n2)cc1 | MT4 uninfected | – | – | – | – | CC50 | 21.5 ± 5.49 µM
CCOC(=O)c1cn(CC(c2cn(C)c3ccc(C)cc23)c2cn(C)c3ccc(C)cc23)c(C)c1C(=O)OC | human primary fibroblasts | viability, MTS | – | 24 h | – | CC50 | > 20 µM

Excerpt of the above:
Structure (SMILES) | target or system | assay | system | conditions | scale | quantity | value
N#Cc1ccc(Nc2nc(N)cc(Oc3c(F)cc(-c4ccccc4)cc3F)n2)cc1 | MT4 uninfected | – | – | – | – | CC50 | 21.5 ± 5.49 µM
